Measured values of several laboratories.
Compare with care: the assays were run in different laboratories. ± marks the error that the study gave.
Sequence of UniProt Q7TMS5 (whole entry, looked up): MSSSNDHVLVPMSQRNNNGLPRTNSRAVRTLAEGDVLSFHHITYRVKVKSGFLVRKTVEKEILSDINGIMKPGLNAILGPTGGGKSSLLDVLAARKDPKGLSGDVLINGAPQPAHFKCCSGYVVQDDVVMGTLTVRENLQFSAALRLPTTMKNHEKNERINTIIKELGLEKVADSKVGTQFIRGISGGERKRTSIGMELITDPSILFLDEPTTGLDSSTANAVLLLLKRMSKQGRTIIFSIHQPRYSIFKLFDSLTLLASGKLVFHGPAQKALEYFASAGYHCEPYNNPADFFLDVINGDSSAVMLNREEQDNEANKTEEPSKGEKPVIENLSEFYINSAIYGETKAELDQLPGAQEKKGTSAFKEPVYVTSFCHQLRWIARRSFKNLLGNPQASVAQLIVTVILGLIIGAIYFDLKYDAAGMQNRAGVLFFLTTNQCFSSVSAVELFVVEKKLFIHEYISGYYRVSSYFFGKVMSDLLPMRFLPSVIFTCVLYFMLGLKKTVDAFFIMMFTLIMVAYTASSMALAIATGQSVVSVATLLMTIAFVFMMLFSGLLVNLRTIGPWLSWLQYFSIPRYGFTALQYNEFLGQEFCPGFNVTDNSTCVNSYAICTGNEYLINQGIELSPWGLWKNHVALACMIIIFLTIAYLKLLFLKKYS
Sequence of UniProt P08682 (whole entry, looked up): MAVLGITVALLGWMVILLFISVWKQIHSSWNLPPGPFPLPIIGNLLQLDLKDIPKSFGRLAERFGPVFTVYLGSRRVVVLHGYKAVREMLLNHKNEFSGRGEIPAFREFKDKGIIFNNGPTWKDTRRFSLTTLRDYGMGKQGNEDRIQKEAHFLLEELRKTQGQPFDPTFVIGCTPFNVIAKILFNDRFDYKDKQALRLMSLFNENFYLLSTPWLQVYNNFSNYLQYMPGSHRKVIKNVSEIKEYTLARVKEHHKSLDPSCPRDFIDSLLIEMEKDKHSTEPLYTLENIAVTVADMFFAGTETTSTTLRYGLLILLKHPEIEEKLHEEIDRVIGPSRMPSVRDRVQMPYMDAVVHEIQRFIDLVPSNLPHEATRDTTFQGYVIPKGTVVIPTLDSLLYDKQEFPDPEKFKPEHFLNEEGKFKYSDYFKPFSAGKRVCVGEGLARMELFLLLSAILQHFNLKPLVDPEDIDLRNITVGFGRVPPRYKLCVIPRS
Sequence of UniProt P11509 (whole entry, looked up): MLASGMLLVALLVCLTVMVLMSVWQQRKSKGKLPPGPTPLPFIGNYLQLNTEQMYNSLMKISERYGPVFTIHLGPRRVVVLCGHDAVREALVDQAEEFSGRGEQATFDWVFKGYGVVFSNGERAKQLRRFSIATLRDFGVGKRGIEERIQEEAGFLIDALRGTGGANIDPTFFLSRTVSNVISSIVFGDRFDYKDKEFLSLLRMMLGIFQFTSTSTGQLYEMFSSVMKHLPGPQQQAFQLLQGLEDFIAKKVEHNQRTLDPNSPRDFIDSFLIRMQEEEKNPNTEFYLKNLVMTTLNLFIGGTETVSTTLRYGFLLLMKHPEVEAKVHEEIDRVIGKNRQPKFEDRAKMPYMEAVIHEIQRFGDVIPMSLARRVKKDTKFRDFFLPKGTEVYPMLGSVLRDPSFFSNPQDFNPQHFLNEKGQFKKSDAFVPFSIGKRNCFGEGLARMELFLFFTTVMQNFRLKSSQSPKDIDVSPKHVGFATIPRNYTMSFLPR

Structure (SMILES) | target or system | test | system | setting | scale | measurement | value
Cc1nc2cccc(OCC(C)(C)C(=O)NC(C)C)c2c(N)c1C(=O)O | – | – | female Sprague-Dawley rat, plasma | oral, 10 mg/kg, single dose | – | half-life | 70.2 min
Cc1coc2c1CC[C@@H](C)C2 | Cytochrome P450 2A6 (CYP2A6, Homo sapiens, UniProt P11509) | inactivator | – | 5 µM, 10 min, pH 7.4, 30 °C, together with: NADPH | baseline: without NADPH | remaining activity | 46 ± 14%
Cc1cc(O)c(=O)c(O)cc1C(=O)N1CCc2cc(C3CCCCC3)ccc2C1 | herpes simplex virus 1 | viral replication | Vero | – | baseline: CC50 over EC50 | selectivity index | > 1000
O=c1ccc2ccccc2o1 | CYP2A6 human | 7-hydroxylation, substrate | human liver microsomes | CYP2A6 added 433 pmol/mg, ratio 1 | – | Km | 1060 ± 410 nM
CCCC[C@H](NC(C)=O)C(=O)N[C@H]1CCC(=O)NC[C@@H](C(=O)N[C@@H](Cc2c[nH]c3ccccc23)C(N)=O)NC(=O)[C@H](CCCNC(=N)N)NC(=O)[C@@H](Cc2ccccc2)NC(=O)[C@H](Cc2c[nH]cn2)NC1=O | – | – | CD Sprague Dawley rat, female, plasma | subcutaneous, 1.0 mg/kg daily, day 1 | – | Vd/F | 1.19 L/kg
Cc1ccc(Nc2nccc(N(C)c3ccc4c(C)n(C)nc4c3)n2)cc1S(N)(=O)=O | Broad substrate specificity ATP-binding cassette transporter ABCG2 (Mus musculus, UniProt Q7TMS5) | bidirectional transport | MDCK-Bcrp1 (murine Bcrp1) | 5 µM, 240 min, together with: erlotinib | – | Papp A-B | 2.95 ± 0.13 ×10⁻⁶ cm/s
Cn1c(-c2ccc(C(N)=O)cc2F)nnc1C(C)(C)Oc1c(F)cc(Cl)cc1F | – | – | healthy young Japanese subjects, plasma | oral, 20 mg once daily, day 18, 14 days dosing | – | half-life mean | 1800 min
c1n[nH]c2c1CCCC2 | CYP2E1 (Oryctolagus cuniculus, UniProt P08682) | inhibitor | – | pH 7.4, 37 °C, cooperative site, together with: 4-nitrophenol | – | Ki | 2700 nM
CC[C@H](C)[C@H](NC(=O)[C@H](CCC(=O)O)NC(=O)[C@H](CO)NC(=O)[C@@H](NC(=O)[C@@H](N)CO)C(C)C)C(=O)N[C@@H](CCC(N)=O)C(=O)N[C@@H](CC(C)C)C(=O)N[C@@H](CCSC)C(=O)N[C@@H](Cc1cnc[nH]1)C(=O)N[C@@H](CC(N)=O)C(=O)N[C@@H](CC(C)C)C(=O)NCC(=O)N[C@@H](CCCCN)C(=O)N[C@@H](Cc1cnc[nH]1)C(=O)N[C@@H](CC(C)C)C(=O)N[C@@H](CC(N)=O)C(=O)N[C@@H](CO)C(=O)N[C@@H](CCSC)C(=O)N[C@@H](CCC(=O)O)C(=O)N[C@@H](CCCN=C(N)N)C(=O)N[C@H](C(=O)N[C@@H](CCC(=O)O)C(=O)N[C@@H](Cc1c[nH]c2ccccc12)C(=O)N[C@@H](CC(C)C)C(=O)N[C@@H](CCCN=C(N)N)C(=O)N[C@@H](CCCCN)C(=O)N[C@@H](CCCCN)C(=O)N[C@@H](CC(C)C)C(=O)N[C@@H](CCC(N)=O)C(=O)N[C@@H](CC(=O)O)C(=O)N[C@H](C(=O)N[C@@H](Cc1cnc[nH]1)C(=O)N[C@@H](CC(N)=O)C(=O)N[C@@H](Cc1ccccc1)C(=O)O)C(C)C)C(C)C | Chymotrypsinogen A, activated (chymotrypsin) (Bos taurus, UniProt P00766) | substrate, HPLC-UV | – | 60 min, pH 6.5, 37 °C, without trypsin inhibitor | – | remaining intact compound | 0%
Cc1cc(O)c(=O)c(O)cc1C(=O)Nc1ccc2ccc3cccc4ccc1c2c34 | herpes simplex virus 1 | viral replication | Vero | – | baseline: CC50 over EC50 | selectivity index | 304

For quick reference, copied from above:
Structure (SMILES) | target or system | test | system | setting | scale | measurement | value
c1n[nH]c2c1CCCC2 | CYP2E1 (Oryctolagus cuniculus, UniProt P08682) | inhibitor | – | pH 7.4, 37 °C, cooperative site, together with: 4-nitrophenol | – | Ki | 2700 nM
